Results of several laboratories.
Protocols differ between the studies behind these lines. “And” joins repeats or separate records; there may be more than shown. Numbers after ± are the reported error.
YAP1 WW2 domain: Transcriptional coactivator YAP1, WW2 domain (YAP1, Homo sapiens, UniProt P46937)
KCNT1: Potassium channel subfamily T member 1 (KCNT1, Homo sapiens, UniProt Q5JUK3)
UniProt Q5JUK3, sequence (whole entry, looked up): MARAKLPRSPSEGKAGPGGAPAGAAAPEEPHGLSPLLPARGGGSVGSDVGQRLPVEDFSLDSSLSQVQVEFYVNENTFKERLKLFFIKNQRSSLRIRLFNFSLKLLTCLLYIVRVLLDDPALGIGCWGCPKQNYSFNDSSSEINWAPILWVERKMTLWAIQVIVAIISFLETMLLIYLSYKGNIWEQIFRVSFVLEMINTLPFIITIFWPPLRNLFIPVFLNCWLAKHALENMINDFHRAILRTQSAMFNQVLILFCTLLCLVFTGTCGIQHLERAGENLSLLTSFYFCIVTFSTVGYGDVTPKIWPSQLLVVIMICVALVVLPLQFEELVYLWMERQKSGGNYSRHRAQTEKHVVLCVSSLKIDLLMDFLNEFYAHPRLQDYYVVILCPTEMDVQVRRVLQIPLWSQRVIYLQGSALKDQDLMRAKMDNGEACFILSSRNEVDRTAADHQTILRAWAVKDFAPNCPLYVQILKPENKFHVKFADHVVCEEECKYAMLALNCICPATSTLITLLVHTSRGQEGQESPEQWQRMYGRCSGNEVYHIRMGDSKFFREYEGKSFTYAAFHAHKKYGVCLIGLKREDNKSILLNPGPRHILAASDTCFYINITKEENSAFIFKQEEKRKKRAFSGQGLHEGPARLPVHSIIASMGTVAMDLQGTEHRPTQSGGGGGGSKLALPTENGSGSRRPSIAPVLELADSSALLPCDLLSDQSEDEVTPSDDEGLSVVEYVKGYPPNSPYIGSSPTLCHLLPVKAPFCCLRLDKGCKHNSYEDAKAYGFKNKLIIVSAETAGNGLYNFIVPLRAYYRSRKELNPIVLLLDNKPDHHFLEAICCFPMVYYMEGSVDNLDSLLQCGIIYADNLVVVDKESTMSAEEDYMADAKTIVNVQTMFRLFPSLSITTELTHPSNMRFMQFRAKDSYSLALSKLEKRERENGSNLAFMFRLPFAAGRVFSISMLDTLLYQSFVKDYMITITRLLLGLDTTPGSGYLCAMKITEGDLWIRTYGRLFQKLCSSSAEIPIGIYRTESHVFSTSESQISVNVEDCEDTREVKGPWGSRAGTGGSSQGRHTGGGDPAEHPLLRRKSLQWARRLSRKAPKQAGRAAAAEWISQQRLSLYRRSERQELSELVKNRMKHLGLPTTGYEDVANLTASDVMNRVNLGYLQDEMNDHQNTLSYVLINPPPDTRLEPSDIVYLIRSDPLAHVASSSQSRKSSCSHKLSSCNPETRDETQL
CFTR del508-508: Cystic fibrosis transmembrane conductance regulator (CFTR, Homo sapiens, UniProt P13569, del508-508)
UniProt P03951, sequence (whole entry, looked up): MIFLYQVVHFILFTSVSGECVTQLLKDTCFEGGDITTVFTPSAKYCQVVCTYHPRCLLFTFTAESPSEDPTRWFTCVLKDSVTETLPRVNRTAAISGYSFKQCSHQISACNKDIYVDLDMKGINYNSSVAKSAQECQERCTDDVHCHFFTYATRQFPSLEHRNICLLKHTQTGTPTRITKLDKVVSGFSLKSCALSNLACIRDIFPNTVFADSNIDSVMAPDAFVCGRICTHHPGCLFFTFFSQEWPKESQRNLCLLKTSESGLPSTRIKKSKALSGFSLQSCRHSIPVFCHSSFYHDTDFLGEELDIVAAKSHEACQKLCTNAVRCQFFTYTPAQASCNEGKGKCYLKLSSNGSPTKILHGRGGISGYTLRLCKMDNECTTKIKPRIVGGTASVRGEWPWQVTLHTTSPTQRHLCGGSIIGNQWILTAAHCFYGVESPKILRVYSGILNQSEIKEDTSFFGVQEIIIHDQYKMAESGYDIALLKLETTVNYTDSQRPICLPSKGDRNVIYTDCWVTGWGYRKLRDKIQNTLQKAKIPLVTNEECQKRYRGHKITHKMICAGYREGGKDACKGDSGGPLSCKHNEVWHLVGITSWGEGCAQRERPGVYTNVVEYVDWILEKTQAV
UniProt Q9NZ08, sequence (whole entry, unmodified, looked up): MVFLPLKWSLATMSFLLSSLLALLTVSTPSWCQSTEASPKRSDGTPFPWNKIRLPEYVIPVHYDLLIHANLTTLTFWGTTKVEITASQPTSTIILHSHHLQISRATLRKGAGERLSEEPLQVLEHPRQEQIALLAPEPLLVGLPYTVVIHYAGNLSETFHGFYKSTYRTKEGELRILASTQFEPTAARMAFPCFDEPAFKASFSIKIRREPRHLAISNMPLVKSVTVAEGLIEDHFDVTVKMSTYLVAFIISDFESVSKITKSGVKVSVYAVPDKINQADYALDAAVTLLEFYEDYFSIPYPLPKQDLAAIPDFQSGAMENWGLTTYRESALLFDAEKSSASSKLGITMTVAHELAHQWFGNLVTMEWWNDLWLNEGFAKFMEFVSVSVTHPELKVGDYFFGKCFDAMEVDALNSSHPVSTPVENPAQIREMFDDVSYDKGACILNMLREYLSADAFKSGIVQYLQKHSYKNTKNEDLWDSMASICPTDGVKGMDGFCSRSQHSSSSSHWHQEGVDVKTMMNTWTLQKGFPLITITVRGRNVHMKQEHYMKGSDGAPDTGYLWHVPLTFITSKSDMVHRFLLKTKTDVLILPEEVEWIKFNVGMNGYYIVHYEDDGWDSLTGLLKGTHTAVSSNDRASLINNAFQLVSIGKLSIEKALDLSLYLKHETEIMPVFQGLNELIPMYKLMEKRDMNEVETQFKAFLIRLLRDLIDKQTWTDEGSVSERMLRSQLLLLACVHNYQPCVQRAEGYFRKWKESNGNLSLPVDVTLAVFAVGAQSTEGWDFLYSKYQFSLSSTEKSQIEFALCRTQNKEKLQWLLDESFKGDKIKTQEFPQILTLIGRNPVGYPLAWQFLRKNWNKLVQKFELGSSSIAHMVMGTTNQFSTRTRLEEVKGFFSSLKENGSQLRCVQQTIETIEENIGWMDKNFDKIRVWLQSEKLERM
UniProt P28223, sequence (whole entry, looked up): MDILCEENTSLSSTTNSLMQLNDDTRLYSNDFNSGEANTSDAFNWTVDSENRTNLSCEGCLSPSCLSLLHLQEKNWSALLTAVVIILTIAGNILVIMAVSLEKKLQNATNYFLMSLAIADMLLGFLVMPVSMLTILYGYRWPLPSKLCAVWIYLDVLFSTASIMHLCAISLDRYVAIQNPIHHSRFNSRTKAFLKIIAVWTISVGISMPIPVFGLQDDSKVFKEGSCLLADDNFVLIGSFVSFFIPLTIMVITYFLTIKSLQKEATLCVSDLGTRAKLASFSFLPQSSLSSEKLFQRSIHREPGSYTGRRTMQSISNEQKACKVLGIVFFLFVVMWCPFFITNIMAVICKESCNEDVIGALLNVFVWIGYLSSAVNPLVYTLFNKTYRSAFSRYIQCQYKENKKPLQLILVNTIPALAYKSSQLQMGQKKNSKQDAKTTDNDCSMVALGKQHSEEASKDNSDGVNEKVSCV
UniProt P12081, sequence (whole entry, unmodified, looked up): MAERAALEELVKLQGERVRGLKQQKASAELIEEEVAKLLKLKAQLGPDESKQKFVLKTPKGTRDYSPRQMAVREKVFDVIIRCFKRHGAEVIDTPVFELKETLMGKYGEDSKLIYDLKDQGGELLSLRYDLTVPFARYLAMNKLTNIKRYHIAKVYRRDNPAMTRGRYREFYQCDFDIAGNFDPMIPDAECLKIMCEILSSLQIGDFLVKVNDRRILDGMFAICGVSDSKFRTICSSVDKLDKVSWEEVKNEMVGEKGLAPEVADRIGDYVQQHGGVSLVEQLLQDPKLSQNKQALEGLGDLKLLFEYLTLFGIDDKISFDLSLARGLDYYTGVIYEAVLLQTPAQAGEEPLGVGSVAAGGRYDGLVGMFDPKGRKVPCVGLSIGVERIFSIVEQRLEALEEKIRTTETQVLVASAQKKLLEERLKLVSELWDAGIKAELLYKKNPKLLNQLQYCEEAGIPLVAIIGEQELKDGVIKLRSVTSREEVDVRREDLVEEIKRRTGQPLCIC
UniProt Q96D31, sequence (whole entry, unmodified, looked up): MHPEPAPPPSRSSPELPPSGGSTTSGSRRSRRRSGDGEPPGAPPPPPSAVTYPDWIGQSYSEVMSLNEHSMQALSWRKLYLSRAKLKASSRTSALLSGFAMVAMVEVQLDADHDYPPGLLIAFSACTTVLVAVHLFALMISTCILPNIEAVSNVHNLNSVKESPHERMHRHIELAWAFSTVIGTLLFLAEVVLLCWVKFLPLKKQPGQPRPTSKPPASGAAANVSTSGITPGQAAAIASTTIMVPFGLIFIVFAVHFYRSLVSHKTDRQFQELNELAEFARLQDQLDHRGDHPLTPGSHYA
UniProt P51955, sequence (whole entry, unmodified, looked up): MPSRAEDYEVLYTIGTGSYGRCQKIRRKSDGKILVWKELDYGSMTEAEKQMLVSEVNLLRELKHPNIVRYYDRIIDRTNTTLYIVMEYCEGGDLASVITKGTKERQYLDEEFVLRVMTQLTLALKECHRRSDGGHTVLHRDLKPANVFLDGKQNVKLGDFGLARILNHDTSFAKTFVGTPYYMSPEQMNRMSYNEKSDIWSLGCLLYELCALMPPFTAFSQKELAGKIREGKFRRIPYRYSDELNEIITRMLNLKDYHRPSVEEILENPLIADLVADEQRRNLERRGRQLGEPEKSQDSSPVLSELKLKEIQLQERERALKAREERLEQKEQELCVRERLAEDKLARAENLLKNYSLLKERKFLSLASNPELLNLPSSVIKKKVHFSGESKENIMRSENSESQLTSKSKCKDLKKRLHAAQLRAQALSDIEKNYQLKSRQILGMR

`CC(C)C[C@H](NC(=O)[C@@H](NC(=O)[C@@H](N)[C@@H](C)O)C(C)C)C(=O)N1CCC[C@H]1C(=O)N1CCC[C@H]1C(=O)N1CCC[C@H]1C(=O)N1CCC[C@H]1C(=O)N[C@@H](Cc1ccc(O)cc1)C(=O)N[C@@H](CCCNC(=N)N)C(=O)N[C@@H](Cc1c[nH]cn1)C(=O)N[C@@H](CCCNC(=N)N)C(=O)N[C@@H](CC(N)=O)C(=O)O` has a ΔH of -13.3 ± 0.49 kcal/mol (Transcriptional coactivator YAP1, WW1 domain (YAP1, Homo sapiens, UniProt P46937); binding, ITC; pH 7.0, 25 °C, WW1 domain).
The Emax of `CSCC[C@H](NC(=O)[C@H](CCC(=O)O)NC(=O)[C@@H]1CCCN1C(=O)[C@@H](NC(=O)[C@@H]1CCCN1)[C@@H](C)O)C(=O)N[C@@H](CCCNC(=N)N)C(=O)N[C@@H](CCC(=O)O)C(=O)N[C@@H](CCCCN)C(=O)N[C@@H](CC(C)C)C(=O)N[C@H]1CSSC[C@@H]2NC(=O)[C@@H](NC(=O)[C@H](Cc3ccc(O)cc3)NC(=O)[C@H](CCCNC(=N)N)NC(=O)[C@H](C)NC(=O)[C@@H]3CCCN3C(=O)[C@H](CC(N)=O)NC(=O)[C@@H](NC(=O)[C@H](C)NC(=O)[C@H](C)NC(=O)[C@H](C)N)[C@@H](C)O)CSSC[C@H](NC(=O)CNC(=O)[C@H](CO)NC(=O)[C@H](CC(C)C)NC2=O)C(=O)N[C@@H]([C@@H](C)O)C(=O)N[C@@H](CCC(N)=O)C(=O)N[C@@H](CCC(N)=O)C(=O)N[C@@H](CC(=O)O)C(=O)N[C@@H](CC(C)C)C(=O)N[C@@H](CC(C)C)C(=O)N[C@@H]([C@@H](C)O)C(=O)N[C@@H](CC(C)C)C(=O)N[C@H](C(=O)N2CCC[C@H]2C(=O)N[C@@H](Cc2ccc(O)cc2)C(=O)O)CSSC[C@@H](C(=O)NCC(=O)NCC(=O)N2CCC[C@H]2C(=O)N[C@@H](CCCNC(=N)N)C(=O)N[C@@H](Cc2c[nH]c3ccccc23)C(=O)N[C@@H](CO)C(=O)N[C@H](C(=O)N[C@@H](CCC(=O)O)C(=O)N[C@@H](C)C(=O)O)[C@@H](C)O)NC(=O)[C@H](C(C)C)NC(=O)[C@H](CCCNC(=N)N)NC(=O)[C@H](C(C)C)NC(=O)[C@H](CC(C)C)NC(=O)[C@H](C)NC(=O)[C@H](CCCNC(=N)N)NC(=O)[C@H](C(C)C)NC(=O)[C@H](Cc2ccccc2)NC(=O)[C@H](Cc2c[nH]cn2)NC(=O)[C@H](Cc2c[nH]cn2)NC(=O)CNC1=O` is reported as 65.9 ± 3.94% (Relaxin receptor 2 (RXFP2, Homo sapiens, UniProt Q8WXD0); cAMP production, agonist, CAMYEL BRET; HEK293 expressing RXFP2; 5 min, 37 °C; reference: forskolin 10 µM).
For `CC(C)C[C@H](NC(=O)[C@@H](NC(=O)[C@@H](N)[C@@H](C)O)C(C)C)C(=O)N1CCC[C@H]1C(=O)N1CCC[C@H]1C(=O)N1CCC[C@H]1C(=O)N1CCC[C@H]1C(=O)N[C@@H](Cc1ccc(O)cc1)C(=O)N[C@@H](CCCNC(=N)N)C(=O)N[C@@H](Cc1c[nH]cn1)C(=O)N[C@@H](C)C(=O)N[C@@H](CC(N)=O)C(=O)O`, the ΔG was -5.57 ± 0.11 kcal/mol (YAP1 WW2 domain; binding, ITC; pH 7.0, 25 °C, WW2 domain).
`CCOc1ccccc1S(=O)(=O)N1CC(c2cc(-c3ccc(F)cc3)no2)C1`: activity class “inactive” (KCNT1; Tl+ flux, inhibitor; HEK293 expressing KCNT1; 30 µM).
The koff2 of `GSRPQRLLWQTAVRHITEQRFIHGH` is reported as 0.5 s⁻¹ and 0.49 s⁻¹ (Calmodulin-1 (Calm1, Rattus norvegicus, UniProt P0DP29); Ca2+ dissociation, stopped-flow quin-2 fluorescence; peptide; 2 µM, pH 7.4, 22 °C, together with: Ca2+-calmodulin complex).
The inhibition of `C/C(=N/N=c1/scc(-c2ccc(Br)cc2)n1Cc1ccccc1)c1ccc2c(c1)OCCO2` is reported as 23.4% (Aldo-keto reductase family 1 member A1 (Bos taurus, UniProt Q3ZCJ2); enzyme activity, inhibitor, absorbance; 1 mM).
For `CC(C)C[C@H](NC(=O)[C@@H](NC(=O)[C@@H](N)[C@@H](C)O)C(C)C)C(=O)N[C@@H](C)C(=O)N1CCC[C@H]1C(=O)N1CCC[C@H]1C(=O)N1CCC[C@H]1C(=O)N[C@@H](Cc1ccc(O)cc1)C(=O)N[C@@H](CCCNC(=N)N)C(=O)N[C@@H](Cc1c[nH]cn1)C(=O)N[C@@H](CCCNC(=N)N)C(=O)N[C@@H](CC(N)=O)C(=O)O`, the ΔH was -10.7 ± 0.28 kcal/mol (YAP1 WW2 domain; binding, ITC; pH 7.0, 25 °C, WW2 domain).
For `Nc1ccc(-c2nc([C@H]3CCc4cc(-c5cc(Cl)ccc5-n5cnnn5)cc(=O)n43)c(F)[nH]2)c(F)n1`, “FXI activity inhibition” read 52 ± 11.2% (Coagulation factor XI (F11, Homo sapiens, UniProt P03951); human, blood; oral, 150 mg once daily, fed, day 1, 24 h).
For `CCOc1ccccc1S(=O)(=O)N1CC(c2nc(-c3ccc(F)s3)no2)C1`, the efficacy was 100% (KCNT1; ion current, activator, automated patch clamp; CHO; 30 µM; reference: bepridil 60 µM).
`Cc1cc(C)c2cc(C#N)c(NCCNC(=O)c3ccncc3)nc2c1` has a Vmax of 176 µM/s (CFTR del508-508; CFTR correction, corrector, iodide influx rate; FRT expressing YFP-H148Q/I152L; up to 25 µM, 16-20 h, 37 °C, together with: forskolin 20 µM, genistein 50 µM).
For `O=S(=O)(c1ccccc1OCC(F)(F)F)N1CC(c2nc(-c3ccc(F)cc3)no2)C1`, the efficacy was 100% (KCNT1; ion current, activator, automated patch clamp; CHO; 30 µM; reference: bepridil 60 µM).
The ΔTm of `Nc1ncnc2c1ncn2[C@@H]1O[C@H](COP(=O)(O)OP(=O)(O)OP(=O)(O)O)[C@@H](O)[C@H]1O` is reported as 2.13 °C (Histidine--tRNA ligase, cytoplasmic (HARS1, Homo sapiens, UniProt P12081, Y330C); thermal stability, DSF).
`GHDTSFYWAAYKKKK` gave a phosphorylation of about 8% (Serine/threonine-protein kinase Nek2 (NEK2, Homo sapiens, UniProt P51955, T175A); substrate; peptide; Km of kinase, 1 h, 30 °C; reference: optimal peptide).
`CCOc1ccccc1S(=O)(=O)N1CC(c2nc(-c3ncccn3)no2)C1` — result for activity class: “inactive” (KCNT1; Tl+ flux, inhibitor; HEK293 expressing KCNT1; 30 µM).
Under “fraction of protein bound”, `VSDGRHMFVWGG` is recorded as 1.7% (Kelch domain-containing protein 2 (UniProt Q9Y2U9); native mass spectrometry; peptide, 200 mM ammonium acetate; 20 µM Kelch domain-containing protein 2, pH 7; reference: total Kelch domain-containing protein 2 signal).
For `O=C(Nc1ccn(Cc2ccc(O)cc2C(F)(F)F)n1)c1c(F)cccc1F`, “fold shift in potency” read at least 10 fold (Calcium release-activated calcium channel protein 1, with STIM1 (ORAI1, Homo sapiens, UniProt Q96D31, E106D); ion current, inhibitor, whole-cell patch clamp; E106D pore mutant vs wild type, together with: STIM1 co-expression; reference: E106D mutant over wild type).
`CC[C@H](C)[C@H](NC(=O)[C@H](CC(C)C)NC(=O)[C@H](CC(C)C)NC(=O)CNC(=O)[C@H](Cc1ccc(O)cc1)NC(=O)[C@H](CCCNC(=N)N)NC(=O)[C@H](CO)NC(C)=O)C(=O)N[C@@H](CCCCN)C(=O)N[C@@H](C)C(=O)N[C@@H](Cc1ccccc1)C(=O)N[C@@H](CO)C(=O)N[C@@H](CCSC)C(=O)N[C@H](C(=O)N[C@@H](C)C(=O)N[C@@H](C)C(=O)N[C@@H](CCC(=O)O)C(=O)N[C@H](C(=O)N[C@@H](C)C(=O)N[C@@H](CCCNC(=N)N)C(=O)N[C@@H](CCCNC(=N)N)C(=O)N[C@H](C(=O)N[C@@H](CCCNC(=N)N)C(=O)N[C@@H](CCC(=O)O)C(=O)N[C@@H](Cc1ccccc1)C(=O)N[C@@H](CCCNC(=N)N)C(N)=O)[C@@H](C)O)[C@@H](C)O)[C@@H](C)O` gave an apparent ΔG1 of -6.81 ± 0.96 kcal/mol (calmodulin 1-148 sites III and IV; calcium binding, Tyr fluorescence titration; 12 µM, pH 7.4, 22 °C, together with: 6 µM calmodulin).
`COC1=C(OC)C(=O)C(C/C=C(\C)CC/C=C(\C)CC/C=C(\C)CC/C=C(\C)CC/C=C(\C)CC/C=C(\C)CC/C=C(\C)CC/C=C(\C)CCC=C(C)C)=C(C)C1=O`: “log association constant” 6.2 (Prosaposin, Saposin B (PSAP, Homo sapiens, UniProt P07602); binding, tyrosine fluorescence quenching; pH 5.5, 25 °C, 40 µM saposin B, 50 mM phosphate).
`O=c1c(-c2ccc(O)cc2)coc2cc(O)cc(O)c12`: “fraction of current” at least 40% (Cyclic nucleotide-gated channel alpha-1 (CNGA1, Bos taurus, UniProt Q00194); cGMP-activated current, blocker, inside-out patch clamp, measured: PTK-bound blocked channels; Xenopus oocytes; together with: saturating cGMP).
The koff1 of `YSLAAVVLGLVQSLNRQRQKQLLNE` is reported as 3.46 s⁻¹ and 3.5 s⁻¹ (Calmodulin-1 (Calm1, Rattus norvegicus, UniProt P0DP29, D130A/D94A); Ca2+ dissociation, stopped-flow quin-2 fluorescence; peptide; 2 µM, pH 7.4, 22 °C, together with: Ca2+-calmodulin complex).
`IINFEKE` gave a Vmax of 56 ± 1 nmol/min/µg (Endoplasmic reticulum aminopeptidase 1 (ERAP1, Homo sapiens, UniProt Q9NZ08, L733R); L-AMC hydrolysis, activator; peptide; 100 µM, 5 min, pH 8.0, 27 °C, mutant L733R, together with: L-AMC varied from 0 µM).
The Vmax of `CN(C)c1cccc(Nc2nc3c(s2)CCCCc2nc(NC(=O)C(C)(C)C)sc2-3)c1` is reported as 291 µM/s (CFTR del508-508; iodide influx, corrector, YFP halide quenching; FRT cells expressing YFP-H148Q/I152L; 16 to 20 h, 37 °C, genistein 50 µM, together with: forskolin 20 µM).
`NC(=Nc1ccccc1)NC(=O)c1nc(Cl)c(N)nc1N` has a current change of 5.18 µA (Degenerin mec-4 (mec-4, Caenorhabditis elegans, UniProt P24612, A713T); ion current, two-electrode voltage clamp; Xenopus oocytes coexpressing MEC-2; 30 µM, -85 mV; reference: uninjected oocytes, positive inhibition, negative potentiation).
Under EC50, `CC1(C)Cc2cc(Cl)cc(C3CC3CN)c2O1` (racemic) is recorded as “inactive” (5-hydroxytryptamine receptor 2A (HTR2A, Homo sapiens, UniProt P28223); agonist, FLIPR calcium flux; HEK293; up to 10 µM).
The Vmax of `COc1ccc(Cl)cc1Nc1nc2c(s1)CCCCc1nc(NC(=O)C(C)(C)C)sc1-2` is reported as 512 µM/s (CFTR del508-508; iodide influx, corrector, YFP halide quenching; FRT cells expressing YFP-H148Q/I152L; 16 to 20 h, 37 °C, genistein 50 µM, together with: forskolin 20 µM).

Some of these lines once more:
`NC(=Nc1ccccc1)NC(=O)c1nc(Cl)c(N)nc1N` has a current change of 5.18 µA (Degenerin mec-4 (mec-4, Caenorhabditis elegans, UniProt P24612, A713T); ion current, two-electrode voltage clamp; Xenopus oocytes coexpressing MEC-2; 30 µM, -85 mV; reference: uninjected oocytes, positive inhibition, negative potentiation).
The koff1 of `YSLAAVVLGLVQSLNRQRQKQLLNE` is reported as 3.46 s⁻¹ and 3.5 s⁻¹ (Calmodulin-1 (Calm1, Rattus norvegicus, UniProt P0DP29, D130A/D94A); Ca2+ dissociation, stopped-flow quin-2 fluorescence; peptide; 2 µM, pH 7.4, 22 °C, together with: Ca2+-calmodulin complex).
`CC[C@H](C)[C@H](NC(=O)[C@H](CC(C)C)NC(=O)[C@H](CC(C)C)NC(=O)CNC(=O)[C@H](Cc1ccc(O)cc1)NC(=O)[C@H](CCCNC(=N)N)NC(=O)[C@H](CO)NC(C)=O)C(=O)N[C@@H](CCCCN)C(=O)N[C@@H](C)C(=O)N[C@@H](Cc1ccccc1)C(=O)N[C@@H](CO)C(=O)N[C@@H](CCSC)C(=O)N[C@H](C(=O)N[C@@H](C)C(=O)N[C@@H](C)C(=O)N[C@@H](CCC(=O)O)C(=O)N[C@H](C(=O)N[C@@H](C)C(=O)N[C@@H](CCCNC(=N)N)C(=O)N[C@@H](CCCNC(=N)N)C(=O)N[C@H](C(=O)N[C@@H](CCCNC(=N)N)C(=O)N[C@@H](CCC(=O)O)C(=O)N[C@@H](Cc1ccccc1)C(=O)N[C@@H](CCCNC(=N)N)C(N)=O)[C@@H](C)O)[C@@H](C)O)[C@@H](C)O` gave an apparent ΔG1 of -6.81 ± 0.96 kcal/mol (calmodulin 1-148 sites III and IV; calcium binding, Tyr fluorescence titration; 12 µM, pH 7.4, 22 °C, together with: 6 µM calmodulin).
The Vmax of `CN(C)c1cccc(Nc2nc3c(s2)CCCCc2nc(NC(=O)C(C)(C)C)sc2-3)c1` is reported as 291 µM/s (CFTR del508-508; iodide influx, corrector, YFP halide quenching; FRT cells expressing YFP-H148Q/I152L; 16 to 20 h, 37 °C, genistein 50 µM, together with: forskolin 20 µM).
